Measurements pooled from the literature.
Each numbered part is a random draw from the data of one study; scales do not carry over between parts.

Series 1 — technique: RNA Bind-n-Seq; form: RNA; medium: in vitro; concentration: not given; reference: input RNA pool; reading: higher = stronger binding; endpoint: bound/input enrichment
Target: RING finger protein unkempt homolog, zinc fingers 1-6, GST-SBP tag (UNK, Homo sapiens, UniProt Q9C0B0, residues 30-357)
UniProt Q9C0B0, sequence (30-357, looked up): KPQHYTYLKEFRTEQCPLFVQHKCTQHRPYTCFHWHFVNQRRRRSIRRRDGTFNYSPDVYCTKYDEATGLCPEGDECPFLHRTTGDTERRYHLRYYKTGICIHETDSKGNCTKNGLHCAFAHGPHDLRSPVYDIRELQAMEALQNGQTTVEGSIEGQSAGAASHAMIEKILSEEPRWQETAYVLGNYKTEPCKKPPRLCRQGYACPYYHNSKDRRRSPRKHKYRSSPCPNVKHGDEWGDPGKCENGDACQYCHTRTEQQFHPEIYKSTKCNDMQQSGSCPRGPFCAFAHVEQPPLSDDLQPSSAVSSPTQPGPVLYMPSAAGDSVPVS
Setting: RNA with constant flanks, human and mouse sites, ends assumed
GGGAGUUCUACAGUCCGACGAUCUUUCCAGAUCAAGGAUACAGAGGUCGAGGCCGAGGUGAAUAUUACUCCAGAGGUCGAAGCUAUAGAGGUUCUUAUGGAGGGCGUGGCAGGGGUGGUAGGGGACACACUCGAGAUUAUCCUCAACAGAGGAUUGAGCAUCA: 0.482 ratio
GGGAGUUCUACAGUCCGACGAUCAGAAUGCUCUCUGGGAGGACUUCCACCGGGGCAGAGCAGGCUGCCCAGCCGAAGCGGGAAGGGCAUGUUGGGCAAGCUGCUGGAGCGACUGAUGUACAGUUGUUAUUUGUCUAUAAAUGGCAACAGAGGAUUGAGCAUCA: 0.169 ratio
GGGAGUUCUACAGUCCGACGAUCACCCGUUACAUUCAGGGAACAGGUGGUGAUGAGGUUGAUGAUUCUAUGGGUGUAAAUGACAUAGAUAUAAGCCUGUACGUCCCAAGAGAUGUAGAAGAGACAGGUAUCACUGUGGCCAGUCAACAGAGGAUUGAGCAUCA: 0.177 ratio
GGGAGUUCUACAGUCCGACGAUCGAGGCAGAAAAAAUGGACGGGGCAGCUUCACAAGGCAAGUCUUCAUGCUCGGUGAUGUGAUUCUGCUGCAAAGCCUGAGGACACUGGGAAUAUAUUCUACCUGAAGAAGCAAACUGCCCGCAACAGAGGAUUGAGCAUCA: 0.199 ratio
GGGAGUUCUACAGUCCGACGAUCCAAACAUGGCCUCAUUGGAAAGGACCAGCCAGGUCUGGUGUGGAGGUCCUAUUUAAUGAAUUAGAAAUUCCCGUGGAAGAAUACUCCUUUGGUAGAUCAAAGAUAUUCAUCCGAAACCCACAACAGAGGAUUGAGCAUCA: 0.429 ratio
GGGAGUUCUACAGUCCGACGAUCGAAUCAAGGAUAUCAUUUGAGGAUGUGGCUGUAGACUUCUCCUGGGACCAGUGGCAGCUGCUUAGCCCUACUCAAAAGAGUUUAUACAGAGAUGUGAUGUUGGAGAACUGCAGCAGCCUUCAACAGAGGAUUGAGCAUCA: 0.437 ratio
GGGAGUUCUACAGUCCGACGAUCAUAGGGCACUUACUAACGGAGCUUACAGAACUGGAAGUUGCUCUGGAUGAGUCAGUGGUGAGUGAAUGUAAAGGCCUAGGACAUUACUGUACACUACUGUAGACUUUAUAAACACCGUACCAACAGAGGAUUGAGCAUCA: 0.313 ratio
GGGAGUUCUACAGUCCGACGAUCUCUGUCUGACUCCUGGGUCUGUGCGCCAUGGCAUGAGUGUUUUCUAGUAGUAGACUGGAGUAGUAGACUGUUUCUAAGAACAGAUGAUCUGGUUCCUGAUGUGUAGAGACUCUUAUGUACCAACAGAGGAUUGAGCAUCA: 0.419 ratio
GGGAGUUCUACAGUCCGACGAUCAAUAUAUUACAGUUCAUUCCACAGAAAGCAUCCAAACCACCCAAAUGACCAAGGCAUAUAUAGUAUUUGGAGGAAUCAGGGGUUUGGAAGGAGUAGGGAGGAGAAUGAAGGAAAAUGCAACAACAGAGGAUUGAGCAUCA: 0.447 ratio
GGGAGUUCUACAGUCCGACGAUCUCUUGAAACUUAAACUCUGUGCUUGUAGGAUACUGUAACCUUUUUGUCUUUUUUUUUUUUUUUUUUUUUAAACCUCCACCUCCAGUGGCUGUGACUGGUCCCAGUGAUUAUACGUUAUUGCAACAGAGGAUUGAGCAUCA: 1.96 ratio
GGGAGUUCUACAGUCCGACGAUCUGGACGAACCAUAAAUUCAACGUGACUGGCACCCCAGAACAAUAUGUACCUUAUUCUACCACUAGAAAGAAGAUUCAGGAGUGGAUCCCACCUUCAACACCUUACAAGUAAAGACAAUGACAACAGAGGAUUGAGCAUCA: 0.546 ratio

Series 2 — technique: RNA Bind-n-Seq; form: RNA; medium: in vitro; concentration: 200 nM; setting: whole 134-nt RNA, ends assumed; with: 150 mM LiCl; reference: input library; reading: higher = stronger binding; endpoint: log2 enrichment; library: 7-deaza-guanosine replaces G
Target: Fragile X messenger ribonucleoprotein 1, C-terminal low-complexity region (Fmr1, Mus musculus, UniProt P35922)
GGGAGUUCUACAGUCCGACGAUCAGUCCUGUGCUACACAUCGUAUGUACCGAAUCGGGUUUUUUUGGGAAAGGGAAAGGGAAAGUAUUAUGUUACGCCGUUCGGAUCUGCACUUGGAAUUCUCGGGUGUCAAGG: -1.62
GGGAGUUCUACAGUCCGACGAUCCAAGUCCUGUGCUACACAUCGUAUGUACCGAAUCGUGUGUGUGUGUGUGUGUGUGUAAAGUAUUAUGUUACGCCGUUCGGAUCUGCACUUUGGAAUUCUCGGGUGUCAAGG: -0.627
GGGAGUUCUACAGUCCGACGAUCCACAGCCAACACGCACCCACACAGACACAGAGGGAAGGGGUUGGGAUGGGGACAGGGUGCACAGCAGGGCGGGGUAGGACCCCAGCCCCUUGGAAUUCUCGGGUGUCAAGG: 1.38
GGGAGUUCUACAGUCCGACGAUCAAGUCCUGUGCUACACAUCGUAUGUACCGAAUCGGAAAAAGGUUUUUGGAAAAAGGAAAGUAUUAUGUUACGCCGUUCGGAUCUGCACUUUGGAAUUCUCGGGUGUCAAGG: -2.21
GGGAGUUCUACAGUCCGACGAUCUGUCUCGAGCAGGGGACAAGACGUUCGAGGAGUACCUGGAUGAGUAUUACCGGCUGGACUACGAGGACAUCAUCGACGACCUGCCCUGUCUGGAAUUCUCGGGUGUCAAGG: -0.485
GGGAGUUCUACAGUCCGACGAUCUCCUGUGCUACACAUCGUAUGUACCGAAUCGGGCCCCCCGGCCCCCCGGGCCCCCCGGGAAAGUAUUAUGUUACGCCGUUCGGAUCUGCAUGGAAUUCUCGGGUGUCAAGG: 0.749
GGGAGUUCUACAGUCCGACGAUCCUCAAGUCCUGUGCUACACAUCGUAUGUACCGAAUCGGGUUGGGGUUGGGUUGGAAAGUAUUAUGUUACGCCGUUCGGAUCUGCACUUCCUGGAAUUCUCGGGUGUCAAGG: -0.171
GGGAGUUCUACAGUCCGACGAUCUCAAGUCCUGUGCUACACAUCGUAUGUACCGAAUCGGGAAGGGGAAGGGAAGGGAAAGUAUUAUGUUACGCCGUUCGGAUCUGCACUUCCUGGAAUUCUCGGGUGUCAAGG: -0.997
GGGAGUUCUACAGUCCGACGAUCCUCAAGUCCUGUGCUACACAUCGUAUGUACCGAAUCGGGCCGGGGCCGGGCCGGAAAGUAUUAUGUUACGCCGUUCGGAUCUGCACUUCCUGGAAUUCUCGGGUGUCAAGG: 0.586
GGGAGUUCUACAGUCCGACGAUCACCAUGCAGGUGGGCAUCUUUGGGAAGUGGGGCAAGGGGGGGAUAGGGAGGGGGGUAACACUUUGGGAACAGGAAAUCCCAGGUCGUUUCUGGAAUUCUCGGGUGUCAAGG: 1.55
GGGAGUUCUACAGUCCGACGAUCUGGGAGGUGGAUUUUGUUUAUUUUUUUAGCUCAUUUCCAGGGGUGGGAAUUUUUUUUUAAUAUGUGGCAUGAAUAAAGUUGUUUUUGAAAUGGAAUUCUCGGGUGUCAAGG: 0.496

Series 3 — technique: protein-binding microarray; form: double-stranded DNA, one strand shown; medium: in vitro; concentration: not given; reading: higher = stronger binding; endpoint: E-score
Target: Microphthalmia-associated transcription factor, full length (MITF, Homo sapiens, UniProt O75030-10, residues 1-413)
Setting: k-mer, scored over probes, only values ≥0.25
ACGAGAC: 0.255
ATGACTG: 0.32
CCTACAC: 0.272
ACCTGAC: 0.259
GTGGGGA: 0.305
GGTCACA: 0.374
CCCGCCC: 0.271
ACGTGCA: 0.289
ACATGAA: 0.332
CATCACG: 0.423
CCCCACA: 0.258
ACATGAT: 0.406
CACGGGA: 0.451
CGTGCTA: 0.26
CCCACCC: 0.251
CACACGC: 0.296
CGTGATA: 0.382
GATCACA: 0.366
AAGTCAT: 0.309

Series 4 — technique: universal PBM; form: double-stranded DNA, one strand shown; medium: in vitro; concentration: not given; reading: higher = stronger binding; endpoint: E-score
Target: Sal-like protein 4, full length isoform B (SALL4, Homo sapiens, UniProt Q9UJQ4-2, residues 1-616)
Setting: 8-mer, flanks averaged, mean of replicates
CTAATTAA: 0.267
GGGTAGCA: -0.0834
AGGATGAA: 0.051
TGCACAAA: 0.242
CCGTTTCA: -0.0127
ATGTCGAA: 0.0842
ATGCGTCA: 0.0483
GTTTCATA: 0.336
AGGATGGA: -0.055
ATGTTATC: 0.102
CGGATGAA: 0.0378
CCGTTCAA: -0.0176
GGGGAGCA: -0.284
AGCGACTA: 0.00704
CTACCGTC: -0.252
AAGAATCA: 0.212
GCGGGGAC: -0.158
GACGGACC: -0.275
GCCGTTCC: -0.245
AAAAGCGG: -0.17
AGAGGCAA: 0.106
AGAGTCCT: -0.168
GGCGGGTA: -0.178
GCTCGATA: -0.0527
CTACCAGA: -0.0743

Series 5 — technique: protein binding microarray; form: double-stranded DNA, one strand shown; medium: in vitro; concentration: not given; reference: not given; reading: higher = stronger binding; endpoint: E-score
Target: Histone acetyltransferase KAT6A, winged helix 1, GST fusion (KAT6A, Homo sapiens, UniProt Q92794, residues 1-85)
Setting: 8-mer, flanks averaged, mean of 2 arrays, mostly near background
Target sequence (chain): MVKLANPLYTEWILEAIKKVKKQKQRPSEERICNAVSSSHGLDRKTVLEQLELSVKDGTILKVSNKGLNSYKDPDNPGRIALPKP
CATTAATC: -0.141
AGGACACA: -0.203
AAGAGAGC: 0.0415
ATTAGCGG: 0.246
CACTTGTC: -0.142
CAGTTATG: -0.23
AGGGCTGG: -0.166
CCATATGG: -0.133
GCGCGTTA: 0.387
CAGGGTCA: -0.0962
CCACGGAA: 0.316
AGTCGTAG: -0.215
ACAGGCGA: -0.127
ACACAGAT: -0.197
CCCCCCTA: -0.117
AGTTTCCA: -0.183
CTAGGAAA: -0.201
GGGTCTAC: 0.0223
ACTTACCC: 0.0534
GATGTTGC: 0.0423
GCGATAAC: 0.0677
CCGTGTCC: 0.221
AAACTTCT: -0.0989
GTTAAATA: -0.0411

Excerpt of the above (series 3):
CCCCACA: 0.258
CATCACG: 0.423
GTGGGGA: 0.305
CCCACCC: 0.251
ACGTGCA: 0.289
ACATGAT: 0.406
CCTACAC: 0.272
GGTCACA: 0.374
CCCGCCC: 0.271
